Assay results from different studies.
Lines come from different studies, so protocols differ. “And” joins repeats or separate records; there may be more than shown.
Organism: Schistosoma mansoni

CC1(C)NC(=O)N(c2ccc(F)c(C(C)(F)F)c2)C1=O
worm burden reduction (adult stage, infected mice; oral, 25 mg/kg; baseline: untreated infected): 95%

CC(C)(C)NCC(SS(=O)(=O)O)c1ccccc1 (stereo not drawn)
male worms recovered (mice; 400 mg/kg single dose, dosed day 7, perfused 52): 13 worms per mouse and 26 worms per mouse and 23 worms per mouse and 14 worms per mouse and 33 worms per mouse

CC1=C(Cn2cc(CN3CCC(F)(F)CC3)nn2)C(=O)c2ccccc2C1=O
killing (adult worms; 10 µM, 24 h): 40.7%

CCCCNC(CCCC)CSS(=O)(=O)O (stereo not drawn)
mean worms recovered (infected mice; 100 mg/kg x4, dosed from day 11, perfusion day 25): 65 worms per mouse

O=C(Nn1c(-c2cccc(Cl)c2)nc2ccccc2c1=O)c1ccccc1
worm burden reduction (infected mice; intraperitoneal, 50 mg/kg 1 times daily for 3 days, 72 h): 70%

CCCCC(CSS(=O)(=O)O)NCC(C)C (stereo not drawn)
total worms recovered (mice; daily x4, 100 mg/kg, from day 11, perfusion day 25): 77 worms per mouse and 69 worms per mouse and 57 worms per mouse and 53 worms per mouse

[2H]C([2H])([2H])C1(C([2H])([2H])[2H])NC(=O)N(c2ccc(F)c(C(C)(F)F)c2)C1=O
worm burden reduction (adult, infected NMRI mice; oral, 100 mg/kg single dose): 100%

CC1=C(Cn2cc(CN3CCC(=O)CC3)nn2)C(=O)c2ccccc2C1=O
killing (adult worms; 10 µM, 48 h): 42.5%

CC(C)[C@@H](C)Nc1nc(-c2cccs2)nc(Cl)c1-c1c(F)cc(F)cc1F
EC50 (worm motility; adult worms ex vivo; 24 h): 0.49 µM
